Assay results from different studies.
Each line is one published result; not all experiments were run side by side.

SMILES	host	medium	route	dose	setting	AUC(0-t)
CC(C)(Sc1ccncc1-c1ccc(C#N)c2ccccc12)C(=O)O	male human	plasma	oral	2.5 mg	single dose, fasted	0.0232 µg·h/mL
O=C(c1nc2n(n1)[C@H](c1ccccc1)C[C@@H]2F)C1CC1	human	plasma	oral	5 mg	single dose, fasted, healthy volunteers	0.831 µg·h/mL
O=C(NCCN1CCCC1)c1cc(-c2ccc(CN3CCOCC3)cc2)nc2ccc(F)cc12	human	blood	oral	100 mg	single dose, whole blood	0.949 µg·h/mL
CS(=O)(=O)n1cc2c(n1)CN([C@H]1CO[C@H](c3cc(F)ccc3F)[C@@H](N)C1)C2	male human	plasma	oral	25 mg	single dose, fasted	23.8 µM·h
CCCOc1ccc([C@H]2CNC(=O)N2c2ccc3[nH]cnc3c2)cc1	human	plasma	oral	30 mg	single dose, fasted	0.168 µg·h/mL
CS(=O)(=O)n1cc2c(n1)CN([C@H]1CO[C@H](c3cc(F)ccc3F)[C@@H](N)C1)C2	male human	plasma	oral	1.5 mg	single dose, fasted, healthy volunteers	1.2 µM·h
CC[C@@H]1C(=O)N(C)c2cnc(Nc3ccc(C(=O)N[C@H]4CC[C@H](N5CCN(CC6CC6)CC5)CC4)cc3OC)nc2N1C(C)C	human	plasma	intravenous	50 mg	patients, infusion	0.59 µg·h/mL
CCOc1ccc(Cc2cc([C@@H]3S[C@H](CO)[C@@H](O)[C@H](O)[C@H]3O)c(OC)cc2C)cc1	human	plasma	oral	3 mg	single dose, fasted, healthy volunteers	0.973 µg·h/mL
CCCCCN1C[C@H](O)[C@@H](O)[C@H](O)[C@@H]1CO	human	plasma	oral	100 mg	single dose, fasted, healthy volunteers	3.95 µg·h/mL

Excerpt of the above:
SMILES	host	medium	route	dose	setting	AUC(0-t)
CC(C)(Sc1ccncc1-c1ccc(C#N)c2ccccc12)C(=O)O	male human	plasma	oral	2.5 mg	single dose, fasted	0.0232 µg·h/mL
